Results gathered from unrelated publications.
A part holds a random share of what one study measured. Several values in a cell are separate wells, animals, samples, runs or records.
Sequence of UniProt Q8IYT8 (whole entry, looked up): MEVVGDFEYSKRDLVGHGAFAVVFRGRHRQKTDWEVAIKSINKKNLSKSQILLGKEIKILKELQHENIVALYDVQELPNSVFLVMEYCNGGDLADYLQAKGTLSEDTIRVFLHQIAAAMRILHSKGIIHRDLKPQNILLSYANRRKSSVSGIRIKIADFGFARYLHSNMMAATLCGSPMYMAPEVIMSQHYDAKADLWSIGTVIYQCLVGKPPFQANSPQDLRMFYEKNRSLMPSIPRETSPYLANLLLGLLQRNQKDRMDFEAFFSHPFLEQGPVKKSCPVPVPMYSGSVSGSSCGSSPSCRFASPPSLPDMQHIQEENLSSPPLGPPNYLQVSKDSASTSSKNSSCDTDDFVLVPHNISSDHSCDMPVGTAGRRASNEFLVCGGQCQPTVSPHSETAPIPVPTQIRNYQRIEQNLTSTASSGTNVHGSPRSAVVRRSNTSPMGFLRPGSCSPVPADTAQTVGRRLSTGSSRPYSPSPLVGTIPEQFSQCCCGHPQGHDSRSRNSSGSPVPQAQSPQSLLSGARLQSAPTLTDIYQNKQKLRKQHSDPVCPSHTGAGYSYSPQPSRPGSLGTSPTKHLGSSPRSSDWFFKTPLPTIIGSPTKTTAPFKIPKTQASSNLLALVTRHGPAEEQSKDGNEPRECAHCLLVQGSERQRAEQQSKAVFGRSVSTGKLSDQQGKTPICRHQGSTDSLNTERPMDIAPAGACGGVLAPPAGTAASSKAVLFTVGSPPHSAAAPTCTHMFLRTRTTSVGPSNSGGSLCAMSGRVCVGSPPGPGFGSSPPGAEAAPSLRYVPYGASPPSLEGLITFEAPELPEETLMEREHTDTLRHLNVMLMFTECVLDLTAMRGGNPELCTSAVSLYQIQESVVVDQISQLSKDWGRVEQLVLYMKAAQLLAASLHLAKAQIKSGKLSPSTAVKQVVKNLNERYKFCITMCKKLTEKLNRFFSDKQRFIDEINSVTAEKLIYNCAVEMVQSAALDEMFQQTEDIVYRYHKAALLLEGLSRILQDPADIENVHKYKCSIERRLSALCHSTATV
Sequence of UniProt Q8WTQ7 (whole entry, looked up): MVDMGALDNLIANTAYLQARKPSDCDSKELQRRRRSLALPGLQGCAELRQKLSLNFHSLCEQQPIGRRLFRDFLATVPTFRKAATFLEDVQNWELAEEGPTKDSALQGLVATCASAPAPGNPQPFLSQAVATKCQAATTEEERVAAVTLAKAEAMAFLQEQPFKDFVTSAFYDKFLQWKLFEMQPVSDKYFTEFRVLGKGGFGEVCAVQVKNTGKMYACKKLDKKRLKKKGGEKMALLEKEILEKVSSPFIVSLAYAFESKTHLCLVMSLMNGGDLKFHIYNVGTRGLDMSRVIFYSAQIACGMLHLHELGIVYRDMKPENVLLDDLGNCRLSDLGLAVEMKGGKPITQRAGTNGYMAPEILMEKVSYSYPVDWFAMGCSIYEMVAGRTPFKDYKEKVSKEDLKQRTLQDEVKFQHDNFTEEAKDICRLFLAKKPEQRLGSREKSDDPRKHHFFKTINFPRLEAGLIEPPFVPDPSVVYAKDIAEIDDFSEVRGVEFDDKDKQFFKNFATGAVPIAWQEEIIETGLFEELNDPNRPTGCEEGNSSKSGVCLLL
Sequence of UniProt Q04912 (whole entry, looked up): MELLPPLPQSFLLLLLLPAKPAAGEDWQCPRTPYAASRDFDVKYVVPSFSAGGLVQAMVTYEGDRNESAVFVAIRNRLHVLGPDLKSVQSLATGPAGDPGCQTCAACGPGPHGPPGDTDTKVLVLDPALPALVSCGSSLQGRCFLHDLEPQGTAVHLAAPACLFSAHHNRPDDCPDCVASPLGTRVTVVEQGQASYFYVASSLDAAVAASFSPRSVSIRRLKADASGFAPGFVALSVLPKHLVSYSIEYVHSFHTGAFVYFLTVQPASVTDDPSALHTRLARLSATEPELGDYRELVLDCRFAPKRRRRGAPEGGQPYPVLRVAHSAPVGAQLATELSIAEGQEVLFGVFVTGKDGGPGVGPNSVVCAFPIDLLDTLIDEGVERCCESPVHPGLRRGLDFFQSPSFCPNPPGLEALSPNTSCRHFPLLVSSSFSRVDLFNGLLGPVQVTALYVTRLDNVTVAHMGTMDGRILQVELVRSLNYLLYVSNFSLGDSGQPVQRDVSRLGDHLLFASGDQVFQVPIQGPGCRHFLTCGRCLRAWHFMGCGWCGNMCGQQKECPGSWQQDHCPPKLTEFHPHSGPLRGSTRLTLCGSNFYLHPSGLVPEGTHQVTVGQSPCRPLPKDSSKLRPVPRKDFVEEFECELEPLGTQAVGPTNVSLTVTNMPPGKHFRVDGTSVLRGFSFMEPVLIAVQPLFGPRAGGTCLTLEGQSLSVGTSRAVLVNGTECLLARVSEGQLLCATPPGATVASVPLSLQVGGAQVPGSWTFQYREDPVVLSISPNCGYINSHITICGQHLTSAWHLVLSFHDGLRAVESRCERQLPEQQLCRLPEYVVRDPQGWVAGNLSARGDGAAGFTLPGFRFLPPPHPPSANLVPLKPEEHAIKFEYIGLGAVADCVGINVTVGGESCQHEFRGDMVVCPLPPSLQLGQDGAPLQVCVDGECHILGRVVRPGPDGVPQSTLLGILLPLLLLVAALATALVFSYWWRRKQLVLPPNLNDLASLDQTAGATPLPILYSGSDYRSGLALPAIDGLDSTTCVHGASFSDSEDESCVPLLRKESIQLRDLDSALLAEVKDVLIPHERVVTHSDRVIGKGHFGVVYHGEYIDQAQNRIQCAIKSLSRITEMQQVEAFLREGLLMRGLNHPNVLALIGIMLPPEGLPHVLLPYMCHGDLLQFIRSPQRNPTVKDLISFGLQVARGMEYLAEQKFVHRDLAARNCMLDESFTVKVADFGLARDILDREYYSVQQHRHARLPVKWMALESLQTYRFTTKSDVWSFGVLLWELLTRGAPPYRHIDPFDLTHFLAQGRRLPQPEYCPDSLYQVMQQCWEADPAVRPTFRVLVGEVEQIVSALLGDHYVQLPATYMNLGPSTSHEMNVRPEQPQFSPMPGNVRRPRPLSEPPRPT
Sequence of UniProt P52333 (whole entry, looked up): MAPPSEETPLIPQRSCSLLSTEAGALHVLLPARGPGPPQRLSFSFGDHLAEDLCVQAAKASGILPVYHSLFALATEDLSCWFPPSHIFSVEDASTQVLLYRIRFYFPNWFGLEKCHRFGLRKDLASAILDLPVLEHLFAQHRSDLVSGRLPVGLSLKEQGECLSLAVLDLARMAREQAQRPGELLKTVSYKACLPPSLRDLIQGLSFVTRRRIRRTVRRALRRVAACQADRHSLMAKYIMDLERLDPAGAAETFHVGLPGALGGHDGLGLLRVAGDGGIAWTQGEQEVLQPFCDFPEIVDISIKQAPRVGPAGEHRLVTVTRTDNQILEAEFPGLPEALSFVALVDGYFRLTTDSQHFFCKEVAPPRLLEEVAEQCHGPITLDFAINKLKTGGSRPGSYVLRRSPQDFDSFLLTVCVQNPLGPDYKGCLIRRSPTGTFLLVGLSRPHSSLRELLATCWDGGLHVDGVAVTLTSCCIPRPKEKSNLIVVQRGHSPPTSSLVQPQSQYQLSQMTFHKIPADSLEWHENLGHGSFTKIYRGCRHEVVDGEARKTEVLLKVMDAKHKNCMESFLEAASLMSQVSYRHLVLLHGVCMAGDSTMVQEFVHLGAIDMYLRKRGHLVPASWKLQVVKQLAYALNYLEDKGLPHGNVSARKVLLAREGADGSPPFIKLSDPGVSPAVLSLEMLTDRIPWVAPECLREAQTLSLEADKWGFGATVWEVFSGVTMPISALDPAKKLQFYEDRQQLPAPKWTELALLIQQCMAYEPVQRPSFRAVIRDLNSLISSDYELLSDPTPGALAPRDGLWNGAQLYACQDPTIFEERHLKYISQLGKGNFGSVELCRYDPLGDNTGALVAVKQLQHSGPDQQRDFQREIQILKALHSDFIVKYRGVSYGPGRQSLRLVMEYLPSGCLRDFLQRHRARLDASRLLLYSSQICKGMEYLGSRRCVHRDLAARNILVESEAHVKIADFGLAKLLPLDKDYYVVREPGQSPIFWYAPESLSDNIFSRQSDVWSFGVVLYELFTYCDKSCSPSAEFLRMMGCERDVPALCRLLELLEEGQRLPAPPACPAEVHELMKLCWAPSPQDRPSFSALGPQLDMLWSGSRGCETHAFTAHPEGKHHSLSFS
Sequence of UniProt Q9UHD2 (whole entry, looked up): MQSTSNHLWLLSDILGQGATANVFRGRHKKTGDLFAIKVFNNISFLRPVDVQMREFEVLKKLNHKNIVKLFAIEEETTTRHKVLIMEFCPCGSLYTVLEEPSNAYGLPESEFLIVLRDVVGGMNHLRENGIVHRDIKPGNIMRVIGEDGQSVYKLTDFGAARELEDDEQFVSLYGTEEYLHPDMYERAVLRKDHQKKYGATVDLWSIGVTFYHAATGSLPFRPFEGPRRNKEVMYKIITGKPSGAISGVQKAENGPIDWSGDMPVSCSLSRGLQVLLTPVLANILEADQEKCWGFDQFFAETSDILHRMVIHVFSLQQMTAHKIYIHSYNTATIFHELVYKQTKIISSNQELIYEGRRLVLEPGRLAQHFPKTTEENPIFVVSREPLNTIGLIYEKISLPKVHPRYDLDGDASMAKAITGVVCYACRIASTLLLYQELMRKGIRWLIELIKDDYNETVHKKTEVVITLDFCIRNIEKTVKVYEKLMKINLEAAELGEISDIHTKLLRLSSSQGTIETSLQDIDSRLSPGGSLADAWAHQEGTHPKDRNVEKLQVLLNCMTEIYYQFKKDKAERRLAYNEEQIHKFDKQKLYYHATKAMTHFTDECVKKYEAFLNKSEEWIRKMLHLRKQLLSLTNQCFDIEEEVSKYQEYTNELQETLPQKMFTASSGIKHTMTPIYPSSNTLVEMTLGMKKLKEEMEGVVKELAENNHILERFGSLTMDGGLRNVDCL

Series 1
SMILES: Cc1cncc2cccc(S(=O)(=O)N3CCCN(C(=O)CN)C[C@@H]3C)c12
Read-out: enzyme activity
Action: inhibitor
Tested at: 0.5 µM
Reference: control
target | remaining activity
Serine/threonine-protein kinase TBK1 (TBK1, Homo sapiens, UniProt Q9UHD2) | 95.7%
Ribosomal protein S6 kinase alpha-2 (RPS6KA2, Homo sapiens, UniProt Q15349) | 89.2%
MAP kinase-activated protein kinase 2 (MAPKAPK2, Homo sapiens, UniProt P49137) | 103%
Casein kinase I isoform gamma-3 (CSNK1G3, Homo sapiens, UniProt Q9Y6M4) | 106%
Ephrin type-A receptor 3 (EPHA3, Homo sapiens, UniProt P29320) | 98.7%
Tyrosine-protein kinase JAK3 (JAK3, Homo sapiens, UniProt P52333) | 93.1%
Wee1-like protein kinase (WEE1, Homo sapiens, UniProt P30291) | 96.3%
Serine/threonine-protein kinase Nek6 (NEK6, Homo sapiens, UniProt Q9HC98) | 93.3%
Mitogen-activated protein kinase kinase kinase 14 (MAP3K14, Homo sapiens, UniProt Q99558) | 109%
Fibroblast growth factor receptor 1 (FGFR1, Homo sapiens, UniProt P11362) | 85.7%
Serine/threonine-protein kinase ULK3 (ULK3, Homo sapiens, UniProt Q6PHR2) | 83.2%
Macrophage-stimulating protein receptor (MST1R, Homo sapiens, UniProt Q04912) | 99.3%
Angiopoietin-1 receptor (TEK, Homo sapiens, UniProt Q02763) | 98.6%
Mitogen-activated protein kinase kinase kinase 5 (MAP3K5, Homo sapiens, UniProt Q99683) | 106%
Serine/threonine-protein kinase ULK2 (ULK2, Homo sapiens, UniProt Q8IYT8) | 98.8%
Serine/threonine-protein kinase Nek1 (NEK1, Homo sapiens, UniProt Q96PY6) | 100%
Rhodopsin kinase GRK7 (GRK7, Homo sapiens, UniProt Q8WTQ7) | 88.8%
Activin receptor type-1B (ACVR1B, Homo sapiens, UniProt P36896) | 100%
Mitogen-activated protein kinase 3 (MAPK3, Homo sapiens, UniProt P27361) | 103%
Dual specificity mitogen-activated protein kinase kinase 2 (MAP2K2, Homo sapiens, UniProt P36507) | 106%
Tyrosine-protein kinase Mer (MERTK, Homo sapiens, UniProt Q12866) | 95.4%
Tyrosine-protein kinase FRK (FRK, Homo sapiens, UniProt P42685) | 114%
Casein kinase I isoform gamma-2 (CSNK1G2, Homo sapiens, UniProt P78368) | 95.1%
Serine/threonine-protein kinase TAO2 (TAOK2, Homo sapiens, UniProt Q9UL54) | 94%
Fibroblast growth factor receptor 3 (FGFR3, Homo sapiens, UniProt P22607) | 97.7%

Series 2
Target: Translocator protein (Tspo, Rattus norvegicus, UniProt P16257)
Sequence of UniProt P16257 (whole entry, looked up): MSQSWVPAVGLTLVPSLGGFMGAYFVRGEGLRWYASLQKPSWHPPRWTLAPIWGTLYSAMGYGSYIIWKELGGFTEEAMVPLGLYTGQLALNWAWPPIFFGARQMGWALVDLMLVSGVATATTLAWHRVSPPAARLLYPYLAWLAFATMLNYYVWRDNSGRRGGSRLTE
Read-out: radioligand binding
Technique: radioligand displacement
Tested at: 10 µM
SMILES | inhibition [%]
FC(F)(F)c1ccc2c(c1)nc(-c1cccnc1)n2C1CC1 | -34.6
CO[C@@H](C)c1c(Nc2ccc([C@@H](N(C)C(=O)C3CCS(=O)(=O)CC3)C(F)(F)F)cc2)cnc2cc(Cl)nn12 | 5.14
CCC(=N\O)/C(C)=C/c1ccc(F)cc1 | 11.9
CN1CCN(C(=O)C(C)(C)c2ccc(C(=O)Nc3cn4cc(-c5ccncc5)ccc4n3)cc2)CC1 | -18.7
Cc1c[nH]c2nccc(Oc3c(F)cc(Nc4cc(Cl)nc(N)n4)cc3F)c12 | 24.9
O=C(c1ccc(F)cc1)N1CC(COc2ccc(Br)cc2)(C(=O)O)C1 | 16.3

Series 3
Species: mouse
Matrix: microsomes or S9
Tested at: 2 µM
Time: 0.5 h
SMILES | remaining compound
c1ccc(Nc2ccc(Oc3ncnc4sccc34)cc2)cc1 | 0.831%
CC(C)NC(=O)Cn1cnc2c(sc3cccc(Cl)c32)c1=O | 93.8%
CCOc1ccc(S(=O)(=O)Nc2cnc3ccccc3c2)cc1 | 1.78%
Cc1ccc(-n2ncc3c(C(C)C)nn(CC(=O)NC(C)(C)C)c(=O)c32)cc1C | 0.0461%
CC(C)COc1cc(=O)n2c(c1C(=O)NCCCn1cccn1)CCCCC2 | 66.2%
Cc1ccc(S(=O)(=O)Nc2cccc(NS(=O)(=O)c3ccc(C)cc3)c2-n2ccc3cccnc32)cc1 | 0.107%
COc1ccc2c(c1)OC(=O)C(C(O)c1ccc3c(c1)OCO3)C2c1ccccc1 (stereo not shown) | > 100%

Series 4
Cell line: HaCaT
Tested at: 100 µM
Time: 18 h
Structure (SMILES) | viability
[H]/N=C(/N)NS(=O)(=O)c1ccc(N)cc1 | 108%
COc1cc2nc(N3CCN(C(=O)C4CCCO4)CC3)nc(N)c2cc1OC (stereo not shown) | 71.4%
CCCN(CCC)CCc1cccc2c1CC(=O)N2 | 111%
C[N+]1(CCCCC[N+]2(C)CCCC2)CCCC1 | 107%
CN1CCC(=C2c3ccccc3CCc3cccnc32)CC1 | 114%
COC(=O)C1=CO[C@@H](O)[C@@H]2C(CO)=CC[C@H]12 | 100%
OC(CCCN1CCCCC1)(c1ccccc1)c1ccccc1 | 114%

Series 5
Compound: CC(C)(C)c1cnc(CSc2cnc(NC(=O)C3CCN(CCCCCSc4cccc5c4CN(C4CCC(=O)NC4=O)C5=O)CC3)s2)o1 (stereo not shown)
Species: NSG mouse, HuT78 xenograft
Dose: dose not given
setting | tumour volume
intraperitoneal, day 7 | 58.8 mm³ and 39.5 mm³ and 20.2 mm³ and 75.4 mm³
subcutaneous, day 14 | 237 mm³ and 144 mm³ and 306 mm³ and 157 mm³ and 445 mm³
intraperitoneal, day 12 | 0 mm³ and 94.2 mm³ and 75.4 mm³
subcutaneous, day 12 | 399 mm³ and 119 mm³ and 45.6 mm³ and 187 mm³ and 62.5 mm³
intraperitoneal, day 2 | 44.5 mm³ and 143 mm³ and 81.6 mm³ and 41.6 mm³
subcutaneous, day 16 | 583 mm³ and 228 mm³ and 296 mm³ and 351 mm³ and 517 mm³
subcutaneous, day 10 | 103 mm³ and 39.8 mm³ and 92.6 mm³ and 62.5 mm³ and 32 mm³

Repeated from above (series 1):
target | remaining activity
Mitogen-activated protein kinase kinase kinase 5 (MAP3K5, Homo sapiens, UniProt Q99683) | 106%
Casein kinase I isoform gamma-2 (CSNK1G2, Homo sapiens, UniProt P78368) | 95.1%
Tyrosine-protein kinase Mer (MERTK, Homo sapiens, UniProt Q12866) | 95.4%
Angiopoietin-1 receptor (TEK, Homo sapiens, UniProt Q02763) | 98.6%
